# Assay results of several laboratories.
# Each line is one published result; not all experiments were run side by side. Numbers after ± are the reported error.
# Chain of UniProt P39656 (whole entry, looked up): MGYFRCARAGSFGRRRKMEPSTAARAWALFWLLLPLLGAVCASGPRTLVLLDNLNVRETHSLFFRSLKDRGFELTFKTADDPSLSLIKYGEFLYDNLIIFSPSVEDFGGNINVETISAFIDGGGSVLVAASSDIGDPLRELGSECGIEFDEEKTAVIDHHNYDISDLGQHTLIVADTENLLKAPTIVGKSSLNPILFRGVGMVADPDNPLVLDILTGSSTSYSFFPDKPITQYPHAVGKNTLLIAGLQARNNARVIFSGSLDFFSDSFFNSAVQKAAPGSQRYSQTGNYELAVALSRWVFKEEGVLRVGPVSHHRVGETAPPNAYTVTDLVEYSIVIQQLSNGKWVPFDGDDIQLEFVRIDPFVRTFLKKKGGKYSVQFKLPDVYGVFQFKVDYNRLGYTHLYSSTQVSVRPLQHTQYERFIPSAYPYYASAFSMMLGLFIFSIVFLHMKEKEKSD
Compound,tested on,test,system,conditions,how to read,endpoint,result
C[C@@H]1OC(=O)NN=C1c1ccc(-c2ccc(F)cc2)c(C(F)(F)F)c1,,"phase I trial, measured: muscle spasms all grades",human patients,5 mg loading then 0.25 mg daily,,patients with adverse event,100%
CC(C)C[C@H](NC(=O)[C@H](CCCCN)NC(=O)OCC1c2ccccc2-c2ccccc21)C(=O)N[C@H](C(=O)N[C@@H](Cc1ccccc1)C(=O)N[C@@H](Cc1ccccc1)C(=O)N[C@@H](CCCCN)C(=O)NCC(=O)N[C@@H](Cc1ccccc1)C(=O)N[C@@H](C)C(=O)N[C@@H](Cc1c[nH]c2ccccc12)C(=O)N[C@@H](CC(N)=O)C(=O)N[C@H](C(=O)N[C@H]1CSSC[C@@H](C(=O)N[C@@H](Cc2c[nH]cn2)C(=O)N[C@@H](CCCNC(=N)N)C(=O)N[C@@H](CCCNC(=N)N)C(=O)N[C@@H](C)C(=O)N[C@@H](CC(N)=O)C(N)=O)NC(=O)[C@H](C(C)C)NC(=O)[C@H](CCCNC(=N)N)NC(=O)[C@H](C(C)C)NC(=O)CNC(=O)[C@H](CC(N)=O)NC(=O)[C@H](CCCNC(=N)N)NC(=O)[C@H](Cc2ccc(O)cc2)NC(=O)[C@H](C(C)C)NC1=O)C(C)C)C(C)C,,,"ICR mice, blood","intraductal mammary, 10 mg/kg, day 5",,plateletcrit,0.03 ± 0.01%
O=[N+]([O-])c1ccc2c(c1)S(=O)(=O)C=C2,,flow cytometry,"male C57BL/6 mice, spleen","i.p., 20 mg/kg, 8 days",relative to: CD45+ cells,CD4+ cells,17.9%
Cn1cncc1-c1c(F)cncc1NC(=O)c1c(N)nn2cc(F)cnc12,,,human patients,"oral, 150 mg twice daily, 4 days per 3 days",,grade ≥3 white blood cells decreased,25%
CO[C@H]1C[C@@H]2CC[C@@H](C)[C@@](O)(O2)C(=O)C(=O)N2CCCC[C@H]2C(=O)O[C@H]([C@H](C)C[C@@H]2CC[C@@H](OC(=O)NCCOCCOCCOCCOCCOCCOCCOCCOCCC(=O)N3CCc4cc(Cn5nc(-c6ccc7oc(N)nc7c6)c6c(N)ncnc65)ccc4C3)[C@H](OC)C2)C[C@@H](O)[C@H](C)/C=C(\C)[C@@H](O)[C@@H](OC)C(=O)[C@H](C)C[C@H](C)/C=C/C=C/C=C/1C,,,patients with advanced solid tumours,"intravenous, dose not given, any grade",,incidence of Constipation TEAE,19.3%
C[C@]1(CO)Cc2ncn(-c3ccc(C#N)c(Cl)c3)c2C(=O)O1,,,Japanese subjects,20 mg single dose,,drug-related Acne incidence,0%
CC(=O)c1c(C)c2cnc(Nc3ccc(C4CCN(CCS(C)(=O)=O)CC4)cn3)nc2n(C2CCCC2)c1=O,,,"human patients, plasma","oral, 75 mg twice daily, day 21 multiple doses, together with: fulvestrant",,Tmax,1.75 h
COc1ncccc1-c1cnn2ccc(N3CCN(C(=O)OC(C)C)CC3)nc12,,,"mouse, SNL model, brain","oral, 30 mg/kg, 120 min",,drug concentration,28 µM
CC[C@H](C)[C@H](NC(=O)[C@H](Cc1ccccc1)NC(=O)[C@H](CCC(=O)O)NC(=O)[C@H](CCCNC(=N)N)NC(=O)[C@H](C)NC(=O)[C@H](C)NC(=O)[C@H](CCC(N)=O)NC(=O)[C@H](CCC(=O)O)NC(=O)[C@H](CCC(=O)O)NC(=O)[C@H](CC(C)C)NC(=O)[C@H](Cc1ccc(O)cc1)NC(=O)[C@H](CO)NC(=O)[C@H](CO)NC(=O)[C@@H](NC(=O)[C@H](CC(=O)O)NC(=O)[C@H](CO)NC(=O)[C@@H](NC(=O)[C@H](Cc1ccccc1)NC(=O)[C@@H](NC(=O)CNC(=O)[C@H](CCC(=O)O)NC(=O)[C@H](C)NC(=O)CCc1cnc[nH]1)[C@@H](C)O)[C@@H](C)O)C(C)C)C(=O)N[C@@H](C)C(=O)N[C@@H](Cc1c[nH]c2ccccc12)C(=O)N[C@@H](CC(C)C)C(=O)N[C@H](C(=O)N[C@@H](CCCNC(=N)N)C(=O)NCC(=O)N[C@@H](CCCNC(=N)N)C(=O)N[C@@H](CCCCNC(=O)COCCOCCNC(=O)COCCOCCNC(=O)CC[C@H](NC(=O)CCCCCCCCCCCCCCCCC(=O)O)C(=O)O)C(=O)NCC(=O)NCC(=O)N[C@@H](CO)C(=O)N[C@@H](CCSC)C(=O)N[C@H](C(=O)N[C@@H](CCCCNc1c(NCCCCCN(O)C(=O)CCC(=O)NCCCCCN(O)C(=O)CCC(=O)NCCCCCN(O)C(C)=O)c(=O)c1=O)C(=O)O)C(C)C)C(C)C [zirconium-89 labelled],,ex vivo gamma counting,"male Sprague-Dawley rats, brain","intravenous, 1 nmol, 24 h, mean of 3 animals",,tissue uptake,0.009 %ID/g
O=S(=O)(Nc1ccccc1)c1ccc(NC(=S)Nc2ccccc2)cc1,,,"female mice, heart","oral, 5 mg/kg daily 14 days",relative to: body weight,relative organ weight,0.48%
COc1ccc2nc3cc(Cl)ccc3c(Nc3cc(CN4CCCC4)c(O)c(CN4CCCC4)c3)c2n1,,,"mouse, blood","intraperitoneal, 57 mg/kg",,red cell distribution width (CV),13.9%
Cc1cn([C@H]2O[C@@H](CO[P@@](=O)(N[C@@H](C)C(=O)OC(C)C)Oc3ccccc3)[C@H](O)[C@H]2F)c(=O)[nH]c1=O,,measured: bone pain,human,25 mg,,patients with TEAE,20%
Cc1ccc(F)c2cc(C(=O)N[C@@H]3CCC[C@H](N4CC[C@H](N(C)S(C)(=O)=O)C4)C3)[nH]c12,,,CD1 mouse,"oral, 30 mg/kg",,CL/F,197 mL/min/kg
CC(C)(C)c1cc(-n2nc3ccccc3n2)c(O)c(C(C)(C)C)c1,,exposure assessment,"human, age 2-3 years, sunscreen",,,dermal uptake,2.09 ng/kg body weight/day
C[C@H]1CN(c2n[nH]c3nc(N[C@H]4CC[C@H](NS(=O)(=O)CCC(F)(F)F)CC4)ncc23)CCO1,"Dolichyl-diphosphooligosaccharide--protein glycosyltransferase 48 kDa subunit (Homo sapiens, UniProt P39656)","Kinobeads competition, measured: DDOST",,"0.8 µM, unit not given",relative to: vehicle,remaining binding,1.31
CCCCCOc1ccc(-c2ccc(-c3ccc(C(=O)N[C@H]4C[C@@H](O)[C@@H](OCC[N+](C)(C)C)NC(=O)[C@@H]5[C@@H](O)[C@@H](C)CN5C(=O)[C@H]([C@@H](C)O)NC(=O)[C@H]([C@H](O)[C@@H](O)c5ccc(O)cc5)NC(=O)[C@@H]5C[C@@H](O)CN5C(=O)[C@H]([C@@H](C)O)NC4=O)cc3)cc2)cc1,,,"adult ICU patients, mITT, serum","dose not given, day 30",,bilirubin,14.6 µmol/L
C=CC(=O)N1CC[C@H](n2nc(C#Cc3cc(OC)cc(OC)c3)c3c(N)ncnc32)C1,,,patients with advanced solid tumours,"oral, dose not given, Malaise, any grade, QD, all patients",,adverse drug reaction incidence,11.6%
CC(C)[C@@H]1NC(=O)CNC(=O)[C@H](CC(N)=O)NC(=O)[C@H](CCCNC(=N)N)NC(=O)[C@H](Cc2ccc(O)cc2)NC(=O)[C@H](C(C)C)NC(=O)[C@@H](NC(=O)[C@@H](NC(=O)[C@H](CC(N)=O)NC(=O)[C@H](Cc2c[nH]c3ccccc23)NC(=O)[C@H](C)NC(=O)[C@H](Cc2ccccc2)NC(=O)CN)C(C)C)CSSC[C@@H](C(=O)N[C@@H](Cc2cnc[nH]2)C(=O)N[C@@H](CCCNC(=N)N)C(=O)N[C@@H](CCCNC(=N)N)C(=O)N[C@@H](C)C(=O)N[C@@H](CC(N)=O)C(N)=O)NC(=O)[C@H](C(C)C)NC(=O)[C@H](CCCNC(=N)N)NC1=O,,,"ICR mice, blood","intraductal mammary, 10 mg/kg, day 5",,plateletcrit,0.02%
CCN(CCO)CCCC(C)Nc1ccnc2cc(Cl)ccc12 (stereo not drawn),,,newly diagnosed glioblastoma patients,"oral, 800 mg/dose, grade 3, together with: radiotherapy plus temozolomide",,febrile neutropenia patients,33%
S=c1oc(-c2ccccc2)nn1CN1CCN(Cc2ccccc2)CC1,,,Wistar rat female,"oral, 300 mg/kg, acute toxicity OECD 423",,serum AST,120 ± 13.4 U/L
CN1CC[C@@H](c2c(O)cc(O)c3c(=O)cc(-c4ccc(C(F)(F)F)cc4Cl)oc23)[C@@H]1CO,,measured: Fatigue,relapsed or refractory haematological malignancies,"oral, dose not given, all arms",,patients with adverse event,22.5%
CC[C@H](C)[C@H](NC(=O)[C@H](Cc1ccccc1)NC(=O)[C@H](CCC(=O)O)NC(=O)[C@H](CCCNC(=N)N)NC(=O)[C@H](C)NC(=O)[C@H](C)NC(=O)[C@H](CCC(N)=O)NC(=O)[C@H](CCC(=O)O)NC(=O)[C@H](CCC(=O)O)NC(=O)[C@H](CC(C)C)NC(=O)[C@H](Cc1ccc(O)cc1)NC(=O)[C@H](CO)NC(=O)[C@H](CO)NC(=O)[C@@H](NC(=O)[C@H](CC(=O)O)NC(=O)[C@H](CO)NC(=O)[C@@H](NC(=O)[C@H](Cc1ccccc1)NC(=O)[C@@H](NC(=O)CNC(=O)[C@H](CCC(=O)O)NC(=O)[C@H](C)NC(=O)CCc1c[nH]cn1)[C@@H](C)O)[C@@H](C)O)C(C)C)C(=O)N[C@@H](C)C(=O)N[C@@H](Cc1c[nH]c2ccccc12)C(=O)N[C@@H](CC(C)C)C(=O)N[C@H](C(=O)N[C@@H](CCCNC(=N)N)C(=O)NCC(=O)N[C@@H](CCCNC(=N)N)C(=O)N[C@@H](CCCCNC(=O)COCCOCCNC(=O)COCCOCCNC(=O)CC[C@H](NC(=O)CCCCCCCCCCCCCCCCC(=O)O)C(=O)O)C(=O)NCC(=O)NCC(=O)N[C@@H](CO)C(=O)N[C@@H](CCCCNc1c(NCCCCCN(O)C(=O)CCC(=O)NCCCCCN(O)C(=O)CCC(=O)NCCCCCN(O)C(C)=O)c(=O)c1=O)C(=O)O)C(C)C [zirconium-89 labelled],,,"rat, liver","sc, 3 nmol/kg, 168 h, ex vivo",,tissue uptake,0.45 %ID/g
[O-][S+]1CCc2nc(N3CCC(c4ncc(Cl)cn4)CC3)nc(NC3(CO)CCC3)c21 (stereo not drawn),,measured: abdominal distension,healthy male subjects,"dose not given, multiple rising dose, total",,subjects with adverse event,0%
O=c1ccc2ncc(=O)n3c2n1C[C@H]3CN1CCC(NCc2cc3c(cn2)OCCC3)CC1,,,healthy human volunteers,"oral, 1500 mg, rifampicin cohort, together with: rifampicin 600 mg",,incidence of any adverse event,29%
O=C(O)CCS(=O)(=O)O,,,"human, plasma","oral, 265 mg twice daily, pre-dose, steady state week 65",,Cmin,307 ng/mL
Oc1cc(Cl)cc(-c2cc(Cl)ccc2Cl)c1Cl,,,"Sprague Dawley rat, female, adipose tissue, wet weight","intraperitoneal, 100 mg/kg, 3 weeks",,concentration,1.24 ng/g
O=C(C1CCSCC1)N1CC(=O)N2CCc3ccccc3[C@@H]2C1,,,"NMRI mouse, female, S. mansoni-infected, plasma","oral, 200 mg/kg",,AUC of (R)-enantiomer,4.1 µM·h
O=C1Nc2cc3[nH]nc(-c4ccncc4)c3cc2CN1Cc1ccccc1,,CTCAE v4.03,"human, relapsed or refractory advanced solid tumours","intravenous, 3.6 mg/kg",,patients with retinal detachment,0%
Cc1cc(C)c(CNC(=O)c2cc(Cl)c3c(c2C)O[C@@](C)([C@H]2CC[C@H](N(C)C)CC2)O3)c(=O)[nH]1,,,"human, relapsed/refractory NHL","concentration not given, all TEAEs, grade 5",,Hypercalcaemia incidence,0%
C[C@]1(O)C[C@@](N)(c2ccc(-c3nc4n(c3-c3ccccc3)COc3ccncc3-4)cc2)C1,,,"human, advanced or metastatic solid tumours","intermittent, dose escalation total",,patients with grade ≥3 Rash TEAE,14.3%
COc1cc(C(=O)NC2CCN(C)CC2)c(F)cc1Nc1ncc(C(F)(F)F)c(Oc2cccc3c2C(=O)N(C)C3)n1,,,"human patients, urine","oral, 25 mg single dose, geometric mean",relative to: dose,fraction excreted in urine (0-24 h),3.06%
COc1cc2c(Oc3ccc4[nH]c(C)cc4c3F)ccnc2cc1OCC1(N)CC1,,,paediatric recurrent refractory sarcoma,10 mg,,grade 1 or 2 weight loss,25%
CCCC1CCC(C2CCC(c3ccc(F)c(F)c3)CC2)CC1 (stereo not drawn),,,"rat, placenta","1000 ng/mL in perfusate, middle dose, mixture of 21 LCMs",,placental accumulation,17 ± 21.3 ng/g
CC(C)Nc1ccnc(Nc2cccc(-c3cccnc3)c2)n1,,measured: sodium,"mouse, blood","intraperitoneal, 5 mg/kg",,blood chemistry,159 mmol/L
CCN1CCN(Cc2ccc(Nc3ncc(F)c(-c4cc(F)c5nc6n(c5c4)[C@H](C)CCC6)n3)nc2)CC1,,Phase Ia dose escalation,patients with advanced solid tumours,"dose not given, monotherapy, any grade",,creatinine renal clearance decreased,33.3%
CCC[C@@](N)(CO)CCc1ccc(OCCCCCC(C)C)cc1,,,C57BL/6 mice,"oral, 50 mg/kg",,oral bioavailability,69%
O=C(Nc1ccccc1)C1CCN(C(=O)Oc2cccnc2)CC1,,Bond-Lader VAS,healthy women,"oral, 100 mg","relative to: pre-dose baseline, direction not given",change in Incompetent-Proficient score,14
Fc1ccc([C@@H]2CCNC[C@H]2COc2ccc3c(c2)OCO3)cc1,,measured: Nausea,healthy volunteers,"oral, dose not given, given -1 h relative to LSD, together with: LSD",direction not given,List of Complaints score,0 score
COc1ccc(-c2c(-c3ccc(C#N)c(F)c3)nc(N3CCC(N)CC3)n(C)c2=O)cc1F,,measured: Gout,human patients,"oral, dose not given, dose escalation, NG",,serious adverse event incidence,2%

# Repeated from above:
Compound,tested on,test,system,conditions,how to read,endpoint,result
CN1CC[C@@H](c2c(O)cc(O)c3c(=O)cc(-c4ccc(C(F)(F)F)cc4Cl)oc23)[C@@H]1CO,,measured: Fatigue,relapsed or refractory haematological malignancies,"oral, dose not given, all arms",,patients with adverse event,22.5%
Fc1ccc([C@@H]2CCNC[C@H]2COc2ccc3c(c2)OCO3)cc1,,measured: Nausea,healthy volunteers,"oral, dose not given, given -1 h relative to LSD, together with: LSD",direction not given,List of Complaints score,0 score
